Results from different studies.
± marks the error that the study gave. In brackets after ≈: the same amount, converted by molar mass.

`CC[C@H](C)[C@H](NC(=O)[C@H](C)NC(=O)[C@@H](NC(=O)[C@@H](NC(=O)[C@H](CC(C)C)NC(=O)[C@H](CCCCN)NC(=O)[C@@H](N)CCCCN)[C@@H](C)CC)[C@@H](C)O)C(=O)N[C@@H](CC(C)C)C(=O)N[C@@H](CCCCN)C(=O)N[C@@H](CCCCN)C(=O)N[C@H](C(=O)N[C@@H](CCCNC(=N)N)C(=O)N[C@@H](CCC(=O)O)C(=O)N[C@@H](CCCCN)C(=O)N[C@@H](CCCCN)C(=O)N[C@@H](CCCCN)C(=O)N[C@@H](CCC(=O)O)C(=O)N[C@@H](CS)C(=O)N[C@@H](CC(C)C)C(=O)N[C@H](C(=O)O)C(C)C)[C@@H](C)O` — result for “decay time constant”: 5.4 ± 0.4 ms (TTX-sensitive sodium channel (mouse); resurgent sodium current, open-channel blocker, whole-cell patch clamp; mouse hippocampal CA3 neurons; 200 µM intracellular, 22 °C, step to +30 mV, 10 ms, with: repolarisation to -30 mV).
For `Cc1ccc2c(n1)c(-c1cccc(S(C)(=O)=O)c1)c(C)n2C/C(F)=C/CN`, the inhibition was -5% (strychnine-sensitive glycine receptor (rat); radioligand binding; 10 µM, rat).
Under “low membrane potential mitochondria”, `CC[C@H](C)[C@H](NC(=O)CNC(=O)[C@@H](NC(=O)[C@H](CCCNC(=N)N)NC(=O)[C@H](CO)NC(=O)[C@H](Cc1c[nH]cn1)NC(=O)[C@H](CCCNC(=N)N)NC(=O)[C@H](CS)NC(=O)CNC(=O)[C@@H](NC(=O)[C@H](CCCNC(=N)N)NC(=O)[C@H](Cc1ccccc1)NC(=O)[C@H](Cc1c[nH]cn1)NC(=O)[C@@H](NC(=O)[C@H](Cc1ccccc1)NC(=O)[C@H](CC(C)C)NC(=O)[C@H](CC(C)C)NC(=O)[C@H](CCC(N)=O)NC(=O)[C@H](CCC(N)=O)NC(=O)[C@H](CC(C)C)NC(=O)[C@@H](NC(=O)[C@H](CCCNC(=N)N)NC(=O)[C@@H](NC(=O)[C@H](CC(C)C)NC(=O)[C@H](C)NC(=O)[C@H](CCC(=O)O)NC(=O)[C@@H](NC(=O)CNC(=O)[C@@H](NC(=O)[C@H](Cc1c[nH]c2ccccc12)NC(=O)[C@@H](NC(=O)[C@@H](N)CC(=O)O)[C@@H](C)O)[C@@H](C)O)C(C)C)[C@@H](C)CC)[C@@H](C)CC)[C@@H](C)CC)[C@@H](C)CC)[C@@H](C)CC)C(=O)N[C@H](C(=O)N[C@@H](CCC(N)=O)C(=O)N[C@@H](CCC(N)=O)C(=O)N[C@@H](CCCNC(=N)N)C(=O)N[C@@H](CCCNC(=N)N)C(=O)N[C@H](C(=O)N[C@@H](CCCNC(=N)N)C(=O)N[C@@H](CC(N)=O)C(=O)NCC(=O)N[C@@H](C)C(=O)N[C@@H](CO)C(=O)N[C@@H](CCCCN)C(=O)N[C@@H](CO)C(=O)O)[C@@H](C)O)[C@@H](C)CC` is recorded as 25% (JC-1 flow cytometry; purified mouse mitochondria; 1 µM, 1 min).
`O=C(NC1CCN(c2ncnc3[nH]cnc23)CC1)c1cccc(NS(=O)(=O)c2ccc(C(F)(F)F)cc2)c1` gave an inhibition of 6.92% (monkeypox virus E1/E12; 0.7812 µM).
For `COCCN1CCn2cc(C(=O)NCc3ccc(F)cc3F)c(=O)c(O)c2C1=O`, the EC50 was 6.5 ± 1 nM (human immunodeficiency virus 1; single-round vector infection; integrase N155H).
`CC[C@H](C)[C@H](NC(=O)[C@H](CCCCN)NC(=O)[C@H](CCCCN)NC(=O)[C@H](CC(C)C)NC(=O)[C@H](Cc1c[nH]c2ccccc12)NC(=O)CN)C(=O)NCC(=O)N[C@@H](CCCCN)C(=O)N[C@@H](CCCCN)C(=O)N[C@H](C(=O)N[C@@H](CCC(=O)O)C(=O)N[C@@H](CCCNC(=N)N)C(=O)N[C@H](C(=O)NCC(=O)N[C@@H](CCC(N)=O)C(=O)N[C@@H](Cc1c[nH]cn1)C(=O)N[C@H](C(=O)N[C@@H](CCCNC(=N)N)C(=O)N[C@@H](CC(=O)O)C(=O)N[C@@H](C)C(=O)N[C@H](C(=O)N[C@H](C(=O)N[C@@H](CCC(N)=O)C(=O)N[C@H](C(=O)N[C@H](C(=O)NCC(=O)N[C@H](C(=O)N[C@@H](C)C(=O)N[C@@H](CCC(N)=O)C(=O)N[C@@H](CCC(N)=O)C(=O)N[C@@H](C)C(=O)N[C@@H](C)C(=O)N[C@@H](CC(N)=O)C(=O)N[C@H](C(=O)N[C@@H](C)C(=O)N[C@@H](C)C(=O)N[C@H](C(=O)N[C@@H](CC(C)C)C(=O)N[C@@H](CCCCN)C(N)=O)[C@@H](C)O)C(C)C)C(C)C)[C@@H](C)CC)[C@@H](C)O)[C@@H](C)CC)[C@@H](C)O)[C@@H](C)O)C(C)C)[C@@H](C)CC` has an MIC of 4 µg/mL (≈ 0.952 µM) (Acinetobacter baumannii; broth microdilution; ATCC 19606, CAMHB).
The EC50 of `Cc1cc(/C=C/C#N)cc(C)c1-n1cnc2cnc(Nc3ccc(C#N)cc3)nc21` is reported as 0.5 ± 0.1 nM (HIV-1; viral replication, single-round infection; RT mutant E40K).
For `CCCCCCCCCCCCCCCC(=O)N[C@@H](CCC(=O)NCCOCCOCCC(=O)NCCOCCOCCC(=O)NCCCC[C@H](NC(=O)[C@H](CC(=O)O)NC(=O)[C@H](CC(C)C)NC(=O)[C@H](Cc1ccc(O)cc1)NC(=O)[C@H](CCCCN)NC(=O)[C@H](CO)NC(=O)[C@H](Cc1ccc(O)cc1)NC(=O)[C@H](CC(=O)O)NC(=O)[C@H](CO)NC(=O)[C@@H](NC(=O)[C@H](Cc1ccccc1)NC(=O)[C@@H](NC(=O)CNC(=O)[C@H](CCC(N)=O)NC(=O)[C@@H](CO)NC(=O)[C@@H](N)Cc1c[nH]cn1)[C@@H](C)O)[C@@H](C)O)C(=O)N[C@@H](CCCNC(=N)N)C(=O)N[C@@H](CCCNC(=N)N)C(=O)N[C@@H](C)C(=O)N[C@@H](CCC(N)=O)C(=O)N[C@@H](CC(=O)O)C(=O)N[C@@H](Cc1ccccc1)C(=O)N[C@H](C(=O)N[C@@H](CCC(N)=O)C(=O)N[C@@H](Cc1c[nH]c2ccccc12)C(=O)N[C@@H](CC(C)C)C(=O)N[C@@H](CC(C)C)C(=O)N[C@@H](CC(N)=O)C(=O)N[C@H](C(=O)NCC(=O)NCC(=O)N1CCC[C@H]1C(=O)N[C@@H](CO)C(=O)N[C@@H](CO)C(=O)NCC(=O)N[C@@H](C)C(=O)N1CCC[C@H]1C(=O)N1CCC[C@H]1C(=O)N1CCC[C@H]1C(=O)N[C@@H](CO)C(N)=O)[C@@H](C)O)C(C)C)C(=O)O`, α-SMA staining read “decreased” (C57BL/6J mouse CCl4 model, liver; dose not given).
`CC(C)CC(C)n1ccn2cc(C(=O)NCc3ccc(F)cc3F)c(=O)c(O)c2c1=O` (stereo not shown) gave an EC50 of 442.9 ± 2.7 nM (human immunodeficiency virus 1; single-round vector infection; integrase G140S/Q148H).
`Nc1c(C(=O)NCc2ccc(F)cc2F)c(=O)n(O)c2ncccc12` has an EC50 of 3 ± 1.8 nM (HIV-1 vector with IN E92Q; single-round infectivity).
For `COCCn1ccn2cc(C(=O)NCc3ccc(F)cc3F)c(=O)c(O)c2c1=O`, the EC50 was 11.9 ± 2.3 nM (human immunodeficiency virus 1; single-round vector infection; integrase N155H).
For `Nc1ncnc2c1ncn2C1CCC(OC(C(=O)O)P(=O)(O)O)C1` (racemic), the fold resistance was 3 fold (HIV-1 reverse transcriptase K70E; enzyme activity, inhibitor; with: poly(rU)·oligo(dA), [3H]dATP; reference: mutant over wild type).
The EC50 of `COCCCn1ccn2cc(C(=O)NCc3ccc(F)cc3F)c(=O)c(O)c2c1=O` is reported as 4.6 ± 0.4 nM (human immunodeficiency virus 1; single-round vector infection; integrase S230N).
`Nc1ccn(C2CCC(OC(C(=O)O)P(=O)(O)O)C2)c(=O)n1` (racemic) gave a fold resistance of 5.2 fold (HIV-1 reverse transcriptase F61A; enzyme activity, inhibitor; with: poly(rI)·oligo(dC), [3H]dCTP; reference: mutant over wild type).
`O=C(NCc1ccc(F)cc1F)c1cn2c(c(O)c1=O)C(=O)N(CCCCCO)CC2` gave an EC50 of 1200 ± 120 nM (human immunodeficiency virus 1; single-round vector infection; integrase G140S/Q148H).
With `Cc1cc(/C=C/C#N)cc(C)c1Nc1nc(Nc2ccc(C#N)cc2)ncc1N` the EC50 was 1.1 ± 0.3 nM (HIV-1; viral replication, single-round infection; RT mutant K103N/P225H).

For quick reference, copied from above:
`CC[C@H](C)[C@H](NC(=O)[C@H](C)NC(=O)[C@@H](NC(=O)[C@@H](NC(=O)[C@H](CC(C)C)NC(=O)[C@H](CCCCN)NC(=O)[C@@H](N)CCCCN)[C@@H](C)CC)[C@@H](C)O)C(=O)N[C@@H](CC(C)C)C(=O)N[C@@H](CCCCN)C(=O)N[C@@H](CCCCN)C(=O)N[C@H](C(=O)N[C@@H](CCCNC(=N)N)C(=O)N[C@@H](CCC(=O)O)C(=O)N[C@@H](CCCCN)C(=O)N[C@@H](CCCCN)C(=O)N[C@@H](CCCCN)C(=O)N[C@@H](CCC(=O)O)C(=O)N[C@@H](CS)C(=O)N[C@@H](CC(C)C)C(=O)N[C@H](C(=O)O)C(C)C)[C@@H](C)O` — result for “decay time constant”: 5.4 ± 0.4 ms (TTX-sensitive sodium channel (mouse); resurgent sodium current, open-channel blocker, whole-cell patch clamp; mouse hippocampal CA3 neurons; 200 µM intracellular, 22 °C, step to +30 mV, 10 ms, with: repolarisation to -30 mV).
`Nc1ccn(C2CCC(OC(C(=O)O)P(=O)(O)O)C2)c(=O)n1` (racemic) gave a fold resistance of 5.2 fold (HIV-1 reverse transcriptase F61A; enzyme activity, inhibitor; with: poly(rI)·oligo(dC), [3H]dCTP; reference: mutant over wild type).
